Published values collected from several papers.
Compare with care: the assays were run in different laboratories. ± gives the spread as reported.
Target: Delta-type opioid receptor (OPRD1, Homo sapiens, UniProt P41143)
Chain of UniProt P41143 (whole entry, looked up): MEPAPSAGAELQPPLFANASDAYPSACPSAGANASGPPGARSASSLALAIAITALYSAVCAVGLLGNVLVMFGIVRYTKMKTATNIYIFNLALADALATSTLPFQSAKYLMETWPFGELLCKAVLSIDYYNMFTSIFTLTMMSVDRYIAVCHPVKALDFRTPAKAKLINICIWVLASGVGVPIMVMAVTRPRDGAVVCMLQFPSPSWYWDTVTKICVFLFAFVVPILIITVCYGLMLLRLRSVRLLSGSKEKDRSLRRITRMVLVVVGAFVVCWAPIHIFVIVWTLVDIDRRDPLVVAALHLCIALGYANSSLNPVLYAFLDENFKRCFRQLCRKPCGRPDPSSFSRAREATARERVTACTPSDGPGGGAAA

`O=C(Nc1cnccc1Cl)N1CCN(Cc2ccc3c(c2)OC(F)(F)O3)CC1` has an inhibition of 3% (radioligand binding, inhibitor; 10 µM, human, added: [3H]naltrindole).
`Cn1cccc1-c1cccnc1` has an inhibition of -1.54% (binding; 50 µM).
`Cl.O=C(N[C@H]1CC[C@@]2(O)[C@H]3Cc4ccc(O)c5c4[C@@]2(CCN3CC2CC2)[C@H]1O5)c1ccc([N+](=O)[O-])s1` gave a selectivity ratio of 19.7 (radioligand binding; CHO membranes; reference: Ki µ over Ki δ).
With `C[C@H]1COCCN1c1nc(NCc2cccnc2C(F)(F)F)c2cccnc2n1` the IC50 was 11.8 µM (binding; CEREP panel).
For `CC(=O)Nc1ccc(C(=O)N[C@H]2CC[C@@]3(O)[C@H]4Cc5ccc(O)c6c5[C@@]3(CCN4CC3CC3)[C@H]2O6)s1.Cl`, the selectivity ratio was 12.5 (radioligand binding; CHO membranes; reference: Ki µ over Ki δ).
For `CC(C)C[C@H]1C(=O)N2CCC[C@H]2[C@]2(O)O[C@](NC(=O)[C@@H]3C=C4c5cccc6[nH]c(Br)c(c56)C[C@H]4[N+](C)(C)C3)(C(C)C)C(=O)N12.[I-]`, “radioligand binding inhibition” read “no effect” (100 nM, added: [3H]DPDPE).
With `CN1CC[C@]23c4c5ccc(O)c4O[C@H]2[C@@H](OS(=O)(=O)O)C=C[C@H]3[C@H]1C5` the Emax was 14.7 ± 1.9%.
`Cl.O=C(N[C@H]1CC[C@@]2(O)[C@H]3Cc4ccc(O)c5c4[C@@]2(CCN3CC2CC2)[C@H]1O5)c1ccc(Cl)s1` gave a selectivity ratio of 104 (radioligand binding; CHO membranes; reference: Ki µ over Ki δ).
`O=c1ccc2ccccc2o1` has an inhibition of -10.5% (radioligand binding, agonist; 10 µM).
The inhibition of `O=C(Nc1cccnn1)N1CCC(=Cc2cccc(Oc3ccc(C(F)(F)F)cn3)c2)CC1` is reported as 31% (radioligand binding, inhibitor; 50 µM, human, added: [3H]naltrindole).
`Cl.NC(=O)c1ccc(C(=O)N[C@H]2CC[C@@]3(O)[C@H]4Cc5ccc(O)c6c5[C@@]3(CCN4CC3CC3)[C@H]2O6)s1` gave a selectivity ratio of 88.2 (radioligand binding; CHO membranes; reference: Ki µ over Ki δ).
`CN1CCN(c2cc(-c3ccncc3)c(-c3ccc4ccccc4c3)nn2)CC1` has an activation of -4.2% (agonist, FLIPR; 12.5 µM).

Some of these lines once more:
The inhibition of `O=C(Nc1cccnn1)N1CCC(=Cc2cccc(Oc3ccc(C(F)(F)F)cn3)c2)CC1` is reported as 31% (radioligand binding, inhibitor; 50 µM, human, added: [3H]naltrindole).
`Cl.NC(=O)c1ccc(C(=O)N[C@H]2CC[C@@]3(O)[C@H]4Cc5ccc(O)c6c5[C@@]3(CCN4CC3CC3)[C@H]2O6)s1` gave a selectivity ratio of 88.2 (radioligand binding; CHO membranes; reference: Ki µ over Ki δ).
